Assay results of several laboratories.
Each line is one published result; not all experiments were run side by side. ± marks the error that the study gave.

Structure (SMILES)	assay	test system	setting	scale	endpoint	value
CC[C@H](C)[C@H](NC(=O)[C@H](CCCCN)NC(=O)CNC(=O)[C@H](CC(C)C)NC(=O)[C@H](Cc1ccccc1)NC(=O)[C@H](CCCCN)NC(=O)[C@H](CO)NC(=O)[C@H](Cc1ccccc1)NC(=O)[C@H](Cc1c[nH]c2ccccc12)NC(=O)[C@H](CCC(N)=O)NC(=O)[C@@H](NC(=O)[C@H](Cc1ccccc1)NC(=O)CCCCCNC(=O)CN1CCN(CC(=O)O)CCN(CC(=O)O)CCN(CC(=O)O)CC1)C(C)C)C(=O)N[C@@H](CCC(=O)O)C(=O)N1CCC[C@H]1C(=O)N[C@@H](CC(=O)O)C(=O)N[C@H](C(=O)N[C@@H](CO)C(=O)N[C@@H](CCC(N)=O)C(=O)N[C@H](C(=O)N[C@@H](CCC(N)=O)C(=O)N[C@@H](CC(=O)O)C(=O)N1CCC[C@H]1C(=O)N[C@@H](CC(N)=O)C(=O)N[C@@H](CC(=O)O)C(=O)N[C@@H](CCC(N)=O)C(=O)N[C@@H](Cc1ccc(O)cc1)C(=O)N[C@@H](CCC(=O)O)C(=O)N1CCC[C@H]1C(=O)N[C@@H](Cc1ccccc1)C(=O)O)C(C)C)C(C)C [copper-64 labelled]	dynamic PET	mouse both sexes, CT26 tumour, untreated, tumour	intravenous, 100 µCi/mouse, 330 s	–	SUVmean	0.88 SUV
CSCC[C@H](NC(=O)CNC(=O)[C@H](CCCCN)NC(=O)[C@H](CC(C)C)NC(=O)[C@@H]1CCCN1C(=O)[C@H](CO)NC(=O)[C@H](Cc1c[nH]cn1)NC(=O)[C@H](Cc1c[nH]c2ccccc12)NC(=O)[C@H](CCCNC(=N)N)NC(=O)[C@H](CC(C)C)NC(=O)[C@H](CCCNC(=N)N)NC(=O)[C@H](Cc1c[nH]c2ccccc12)NC(=O)[C@H](CS)NC(=O)CCCCCNC(=O)CN1CCN(CC(=O)O)CCN(CC(=O)O)CCN(CC(=O)O)CC1)C(=O)O [copper-64 labelled]	–	BALB/c nude mouse, Huh-7 tumour, tumour and muscle	intravenous, 1.85 MBq, 1 h, ex vivo biodistribution	baseline: tumour over muscle	tumour-to-muscle ratio	6.45
COc1cnc2cccc(N3CCc4c(cc(Cn5ccnc5)cc4-c4cn(C)nc4C(F)(F)F)C3=O)c2c1	–	CD-1 mouse	intraperitoneal, 150 mg/kg once daily, day 2, dose-escalation tolerability	baseline: day 1	body weight change	2.7%
O=C1NC2(CC2)COc2ncc(F)cc2[C@H]2COCCN2c2ccn3ncc1c3n2	–	Sprague-Dawley rats, male, blood	oral, 2.5 mg/kg/day, end of recovery, 4-week subacute toxicity	–	eosinophil percentage	1.02 ± 0.46%
CSCC[C@H](N)C(=O)N[C@@H](C)C(=O)N[C@@H](Cc1c[nH]c2ccccc12)C(=O)N[C@@H](Cc1c[nH]cn1)C(=O)N[C@@H](CC(=O)O)C(=O)N[C@@H](CC(=O)O)C(=O)N[C@@H](CCC(=O)O)C(=O)N[C@@H](CCC(=O)O)C(=O)N[C@@H](Cc1ccccc1)C(=O)N[C@@H](C)C(=O)N[C@@H](CCCNC(=N)N)C(=O)N[C@@H](CCCNC(=N)N)C(=O)N[C@@H](CCCNC(=N)N)C(=O)N[C@@H](CCCNC(=N)N)C(=O)NCCCCCC(=O)NCCCCC(NC(=O)CCCCCNC(=O)[C@H](CCCNC(=N)N)NC(=O)[C@H](CCCNC(=N)N)NC(=O)[C@H](CCCNC(=N)N)NC(=O)[C@H](CCCNC(=N)N)NC(=O)[C@H](C)NC(=O)[C@H](Cc1ccccc1)NC(=O)[C@H](CCC(=O)O)NC(=O)[C@H](CCC(=O)O)NC(=O)[C@H](CC(=O)O)NC(=O)[C@H](CC(=O)O)NC(=O)[C@H](Cc1c[nH]cn1)NC(=O)[C@H](Cc1c[nH]c2ccccc12)NC(=O)[C@H](C)NC(=O)[C@@H](N)CCSC)C(=O)NCCCCC(NC(=O)C(CCCCNC(=O)CCCCCNC(=O)[C@H](CCCNC(=N)N)NC(=O)[C@H](CCCNC(=N)N)NC(=O)[C@H](CCCNC(=N)N)NC(=O)[C@H](CCCNC(=N)N)NC(=O)[C@H](C)NC(=O)[C@H](Cc1ccccc1)NC(=O)[C@H](CCC(=O)O)NC(=O)[C@H](CCC(=O)O)NC(=O)[C@H](CC(=O)O)NC(=O)[C@H](CC(=O)O)NC(=O)[C@H](Cc1c[nH]cn1)NC(=O)[C@H](Cc1c[nH]c2ccccc12)NC(=O)[C@H](C)NC(=O)[C@@H](N)CCSC)NC(=O)CCCCCNC(=O)[C@H](CCCNC(=N)N)NC(=O)[C@H](CCCNC(=N)N)NC(=O)[C@H](CCCNC(=N)N)NC(=O)[C@H](CCCNC(=N)N)NC(=O)[C@H](C)NC(=O)[C@H](Cc1ccccc1)NC(=O)[C@H](CCC(=O)O)NC(=O)[C@H](CCC(=O)O)NC(=O)[C@H](CC(=O)O)NC(=O)[C@H](CC(=O)O)NC(=O)[C@H](Cc1c[nH]cn1)NC(=O)[C@H](Cc1c[nH]c2ccccc12)NC(=O)[C@H](C)NC(=O)[C@@H](N)CCSC)C(N)=O (some centres unmarked)	–	C57BL/6 mouse female, femur	dose not given, 6 h	baseline: total	mean tissue distribution	1.43%
CC(C)Oc1c(NC(=O)c2ccc(NC(=O)[C@H](CC(N)=O)NC(=O)c3ccc(/N=N/c4ccccc4)cc3)cc2)ccc(C(=O)Nc2ccc(C(=O)O)cc2)c1O	absorbance	DMSO	40 °C, PSS to ground state relaxation	–	thermal half-life	6.2 h
CC(C)=CCC/C(C)=C\CCn1cc(CC(C)(P(=O)(O)O)P(=O)(O)O)nn1	–	mouse CD-1	intravenous, 0.3 mg/kg, 2 h	baseline: dose	biliary excretion	0.75%
CCCCCCCCCCCCCC(=O)N[C@@H](CCCNC(=N)N)C(=O)N[C@@H](Cc1c[nH]c2ccccc12)C(=O)N[C@@H](CCCCN)C(=O)N[C@H](C(=O)N[C@@H](Cc1ccccc1)C(=O)N[C@@H](CCCCN)C(=O)N[C@@H](CCCCN)C(=O)N[C@H](C(=O)N[C@@H](CCC(=O)O)C(=O)N[C@@H](CCCCN)C(=O)N[C@H](C(=O)NCC(=O)N[C@@H](CCC(N)=O)C(=O)N[C@@H](CC(N)=O)C(=O)N[C@H](C(=O)N[C@@H](CCCNC(=N)N)C(=O)N[C@@H](CC(=O)O)C(=O)NCC(=O)N[C@H](C(=O)N[C@H](C(=O)N[C@@H](CCCCN)C(=O)N[C@@H](C)C(=O)NCC(=O)N1CCC[C@H]1C(=O)N[C@@H](C)C(=O)N[C@H](C(=O)N[C@@H](C)C(=O)N[C@H](C(=O)N[C@H](C(=O)NCC(=O)N[C@@H](CCC(N)=O)C(=O)N[C@@H](C)C(=O)N[C@@H](C)C(=O)N[C@H](C(=O)N[C@H](C(N)=O)[C@@H](C)CC)[C@@H](C)O)C(C)C)C(C)C)C(C)C)C(C)C)[C@@H](C)CC)[C@@H](C)CC)C(C)C)[C@@H](C)CC)[C@@H](C)CC	CD spectroscopy	50% TFE in water	room temperature	–	helical content	53.5%
CC1(C)C(=O)N(c2ccc(C#N)c(C(F)(F)F)c2)C(=S)N1c1ccc(C(N)=O)c(F)c1	–	human, male, plasma	oral, 80 mg, single dose, fasting	–	Tmax	180 ± 28 h
CN1Cc2cc(Cl)ccc2-n2c(nnc2C2CCN(c3cccc([18F])n3)CC2)C1	PET two-tissue compartment model	rhesus monkey, cerebellum	intravenous, dose not given, 70 min scan, baseline scan	–	total volume of distribution	0.85 ± 0.32 mL/cm3
COc1nc(CC=C(C)CC=CC(C)=CC(C)C(OC2OC(CO)C(O)C(O)C2O)C(C)=CCO)c(C)c(O)c1OC (centres unmarked)	–	male C57BL/6 mouse, plasma	intravenous, 2 mg/kg	–	clearance	940 mL/min/kg
CN[C@H](CC(C)C)C(=O)N[C@H]1C(=O)N[C@@H](CC(N)=O)C(=O)N[C@H]2C(=N)N[C@H]3C(=O)N[C@H](C(=O)N[C@H](C(=O)NCCCNC(=N)N)c4cc(O)cc(O)c4-c4cc3ccc4O)[C@H](O)c3ccc(c(Cl)c3)Oc3cc2cc(c3O[C@@H]2O[C@H](CO)[C@@H](O)[C@H](O)[C@H]2O[C@H]2C[C@](C)(NCc3ccc(-c4ccc(Cl)cc4)cc3)[C@H](O)[C@H](C)O2)Oc2ccc(cc2Cl)[C@H]1O	–	mouse	–	–	MTD	≥ 25 mg/kg
N#[11C]c1ccc(-c2csc(NN=C3CCCC3)n2)cc1	–	C57BL/6 mice, male, thymus	intravenous, 3 MBq, 15 min	–	radioactivity uptake	2.96 ± 1.17 %ID/g
COc1cc(OC)c2c(=O)cc(-c3cc(C)c(OCCCN4CCN(C)CC4)c(C)c3)oc2c1	refers to: Il6 mRNA	C57BL/6J mouse, male, bleomycin lung injury, lung	oral, 10 mg/kg, with: bleomycin	baseline: untreated	fold induction	13.8 ± 9 fold
CC[C@H](C)[C@H](NC(=O)CNC(=O)[C@H](CC(C)C)NC(=O)[C@H](Cc1ccccc1)NC(=O)CN)C(=O)N[C@@H](CC(C)C)C(=O)N[C@@H](Cc1ccccc1)C(=O)N[C@@H](Cc1c[nH]cn1)C(=O)NCC(=O)N[C@H](C(=O)N[C@@H](Cc1c[nH]cn1)C(=O)N[C@@H](Cc1c[nH]cn1)C(=O)NCC(=O)N[C@@H](CCCNC(=N)N)C(=O)N[C@@H](CCCCN)C(=O)N[C@@H](CCCCN)C(=O)N[C@@H](C)C(=O)N[C@@H](CC(C)C)C(=O)N[C@@H](Cc1c[nH]cn1)C(=O)N[C@@H](CCSC)C(=O)N[C@@H](CC(N)=O)C(=O)N[C@@H](CO)C(=O)N[C@@H](CCC(=O)O)C(=O)N[C@@H](CCCNC(=N)N)C(=O)N[C@@H](CCCNC(=N)N)C(=O)N[C@@H](CO)C(=O)O)C(C)C	–	zebrafish embryos 4 hpf, E3 medium	24 h	–	chronic toxic concentration	5 µM
O=C(OCc1ccc(F)cc1)N(Cc1cn(-c2cc3ccc(O)cc3oc2=O)nn1)[c-]1cccc1.[Fe+2].c1cc[cH-]c1	absorbance	RPMI medium with 5% FBS	1% DMSO	–	solubility	> 200 µM
CC(C)C[C@@H](NC(=O)[C@@H](CCCNC(=N)N)NC(=O)[C@@H](Cc1c[nH]cn1)NC(=O)[C@@H](Cc1c[nH]c2ccccc12)NC(=O)[C@@H](Cc1c[nH]cn1)NC(=O)[C@@H](Cc1ccccc1)NC(=O)[C@H](NC(=O)[C@@H](Cc1ccc(O)cc1)NC(=O)CNC(=O)CNC(=O)CCOCCOCCOCCNC(=O)CN1CCN(CC(=O)O)CCN(CC(=O)O)CC1)[C@H](C)O)C(=O)N[C@H](CC(N)=O)C(=O)N1CCC[C@@H]1C(=O)O [gallium-68 labelled]	–	male C57BL/6 mice	intravenous, 1.85 MBq, 60 min, with: antibody blocking	baseline: tumour over liver	tumour-to-tissue ratio	4.23 ± 0.92

Excerpt of the above:
Structure (SMILES)	assay	test system	setting	scale	endpoint	value
CSCC[C@H](NC(=O)CNC(=O)[C@H](CCCCN)NC(=O)[C@H](CC(C)C)NC(=O)[C@@H]1CCCN1C(=O)[C@H](CO)NC(=O)[C@H](Cc1c[nH]cn1)NC(=O)[C@H](Cc1c[nH]c2ccccc12)NC(=O)[C@H](CCCNC(=N)N)NC(=O)[C@H](CC(C)C)NC(=O)[C@H](CCCNC(=N)N)NC(=O)[C@H](Cc1c[nH]c2ccccc12)NC(=O)[C@H](CS)NC(=O)CCCCCNC(=O)CN1CCN(CC(=O)O)CCN(CC(=O)O)CCN(CC(=O)O)CC1)C(=O)O [copper-64 labelled]	–	BALB/c nude mouse, Huh-7 tumour, tumour and muscle	intravenous, 1.85 MBq, 1 h, ex vivo biodistribution	baseline: tumour over muscle	tumour-to-muscle ratio	6.45
COc1cnc2cccc(N3CCc4c(cc(Cn5ccnc5)cc4-c4cn(C)nc4C(F)(F)F)C3=O)c2c1	–	CD-1 mouse	intraperitoneal, 150 mg/kg once daily, day 2, dose-escalation tolerability	baseline: day 1	body weight change	2.7%
